{"data": "Experimental data of several laboratories", "organism": "Enterococcus faecalis", "note": "Each line is one published result; not all experiments were run side by side."}
{"SMILES": "CCCCCCCCCCCCCCNC(=O)CP(=O)(O)O", "strain": "ATCC 33186", "MIC": "> 200 µg/mL"}
{"SMILES": "CC[C@H](C)[C@H](NC(=O)[C@H](CC(C)C)NC(=O)[C@@H](NC(=O)[C@H](CCCNC(=N)N)NC(=O)[C@H](CCCNC(=N)N)NC(=O)[C@H](CCCNC(=N)N)NC(=O)[C@@H](N)CCCNC(=N)N)[C@@H](C)CC)C(=O)N[C@@H](CCCCN)C(=O)N[C@@H](CCCCN)C(=O)N[C@H](C(=O)N[C@@H](CC(C)C)C(=O)N[C@@H](CCCCN)C(=O)N[C@@H](CC(C)C)C(=O)N[C@@H](CCCCN)C(=O)N[C@@H](CO)C(=O)N[C@@H](CO)C(=O)N[C@@H](C)C(=O)N[C@@H](Cc1ccc(O)cc1)C(N)=O)C(C)C", "technique": "broth microdilution", "strain": "ATCC 29212", "notes": "highest value reported", "MIC": "64 µM"}
{"SMILES": "CN[C@H](CC(C)C)C(=O)N[C@H]1C(=O)N[C@@H](CC(N)=O)C(=O)N[C@H]2C(=O)NC3C(=O)N[C@H](C(=O)N[C@H](C(=O)NCCC[N+](C)(C)C)c4cc(O)cc(O)c4-c4cc3ccc4O)[C@H](O)c3ccc(c(Cl)c3)Oc3cc2cc(c3OC2OC(CO)C(O)[C@H](O)[C@@H]2O[C@H]2CC(C)(NCc3ccc(-c4ccc(Cl)cc4)cc3)[C@H](O)[C@H](C)O2)Oc2ccc(cc2Cl)[C@H]1O (stereo partly shown)", "strain": "BM 4166 vanA", "together with": "100 µg/mL POPE plus LTA", "MIC": "1 µg/mL"}
{"SMILES": "CC[C@H](C)[C@H](NC(=O)[C@H](C)NC(=O)[C@H](CCCCN)NC(=O)[C@H](CCCNC(=N)N)NC(=O)[C@H](CCCCN)NC(=O)[C@H](CCCNC(=N)N)NC(=O)[C@H](CCCCN)NC(=O)[C@@H](N)CCCNC(=N)N)C(=O)N[C@@H](CO)C(=O)NCC(=O)N[C@@H](CO)C(=O)N[C@@H](CC(C)C)C(=O)N[C@H](C(=O)N[C@H](C(=O)N[C@@H](CC(C)C)C(=O)N[C@@H](Cc1ccccc1)C(=O)NCC(=O)N[C@@H](Cc1ccc(O)cc1)C(N)=O)[C@@H](C)O)C(C)C", "technique": "broth microdilution", "strain": "ATCC 29212", "notes": "highest value reported", "MIC": "64 µM"}
{"SMILES": "CN(C)[C@@H]1C(O)=C(C(N)=O)C(=O)[C@@]2(O)C(O)=C3C(=O)c4c(O)c(N)nc(F)c4C[C@H]3C[C@@H]12.Cl.Cl", "strain": "tet(M)-carrying", "MIC": "16 µg/mL"}
{"SMILES": "CC[C@H](C)[C@H](N)C(=O)N[C@@H](CCCNC(=N)N)C(=O)N[C@H](C(=O)N[C@@H](Cc1c[nH]c2ccccc12)C(=O)N[C@@H](Cc1c[nH]c2ccccc12)C(=O)N[C@@H](CCCCN)C(=O)N[C@H](C(=O)N[C@H](C(=O)N[C@@H](CCCNC(=N)N)C(=O)N[C@@H](CCCCN)C(=O)N[C@@H](Cc1c[nH]c2ccccc12)C(=O)N[C@@H](CCCCN)C(=O)N[C@@H](C)C(=O)N[C@H](C(=O)N[C@@H](Cc1c[nH]c2ccccc12)C(=O)N[C@@H](Cc1c[nH]cn1)C(N)=O)[C@@H](C)CC)C(C)C)[C@@H](C)CC)C(C)C", "technique": "broth dilution", "strain": "KCTC 3511", "MIC": "12.5 µM"}
{"SMILES": "CCCCCCCCCCCCCCCC(=O)NS(=O)(=O)OCCCC", "strain": "ATCC 33186", "MIC": "> 200 µg/mL"}
{"SMILES": "CC[C@H](C)[C@H](NC(=O)[C@H](CCCCN)NC(=O)[C@H](CCCNC(=N)N)NC(=O)[C@H](CCCNC(=N)N)NC(=O)[C@H](CC(C)C)NC(=O)[C@H](CCCCN)NC(=O)[C@H](CCCCN)NC(=O)[C@H](Cc1ccccc1)NC(=O)[C@H](CC(C)C)NC(=O)CNC(=O)[C@H](CCCNC(=N)N)NC(=O)[C@@H](N)CCCNC(=N)N)C(=O)N[C@@H](CCCCN)C(=O)N[C@@H](CCCCN)C(=O)NCC(=O)N[C@@H](Cc1ccccc1)C(=O)N[C@@H](CCCCN)C(=O)N[C@@H](CCCCN)C(=O)N[C@H](C(=O)N[C@@H](Cc1ccccc1)C(=O)N[C@@H](CCCCN)C(=O)N[C@@H](CCCNC(=N)N)C(=O)N[C@@H](CC(C)C)C(=O)N1CCC[C@H]1C(=O)N1CCC[C@H]1C(=O)N[C@H](C(=O)NCC(=O)N[C@H](C(=O)NCC(=O)N[C@H](C(=O)N[C@@H](CO)C(=O)O)C(C)C)C(C)C)C(C)C)[C@@H](C)CC", "strain": "ATCC 29212", "notes": "highest concentration 50 µM", "MIC": "2.58 µM"}
{"SMILES": "CC[C@H](C)[C@H](NC(=O)[C@H](CC(C)C)NC(=O)[C@@H](NC(=O)[C@H](CCCNC(=N)N)NC(=O)[C@H](CCCNC(=N)N)NC(=O)[C@H](CCCNC(=N)N)NC(=O)[C@@H](N)CCCNC(=N)N)[C@@H](C)CC)C(=O)N[C@@H](CCCNC(=N)N)C(=O)N[C@@H](CCCNC(=N)N)C(=O)N[C@H](C(=O)N[C@@H](CC(C)C)C(=O)N[C@@H](CCCNC(=N)N)C(=O)N[C@@H](CC(C)C)C(=O)N[C@@H](CCCNC(=N)N)C(=O)N[C@@H](CO)C(=O)N[C@@H](CO)C(=O)N[C@@H](C)C(=O)N[C@@H](Cc1ccc(O)cc1)C(N)=O)C(C)C", "technique": "broth microdilution", "strain": "ATCC 29212", "notes": "highest value reported", "MIC": "8 µM"}
{"SMILES": "CN[C@H](CC(C)C)C(=O)N[C@H]1C(=O)N[C@@H](CC(N)=O)C(=O)N[C@H]2C(=O)N[C@H]3C(=O)N[C@H](C(=O)N[C@H](C(=O)O)c4cc(O)cc(O)c4-c4cc3ccc4O)[C@H](O)c3ccc(c(Cl)c3)Oc3cc2cc(c3O[C@@H]2O[C@H](CO)[C@@H](O)[C@H](O)[C@H]2O[C@H]2C[C@](C)(N)[C@H](O)[C@H](C)O2)Oc2ccc(cc2Cl)[C@H]1O", "technique": "broth microdilution", "strain": "vancomycin-resistant", "MIC": "22 µM"}
{"SMILES": "CN[C@H](CC(C)C)C(=O)N[C@H]1C(=O)N[C@@H](CC(N)=O)C(=O)N[C@H]2C(=O)N[C@H]3C(=O)N[C@H](C(=O)N[C@H](C(=O)O)c4cc(O)cc(O)c4-c4cc3ccc4O)[C@H](O)c3ccc(c(Cl)c3)Oc3cc2cc(c3O[C@@H]2O[C@H](CO)[C@@H](O)[C@H](O)[C@H]2O[C@H]2C[C@](C)(N)[C@H](O)[C@H](C)O2)Oc2ccc(cc2Cl)[C@H]1O", "strain": "ATCC 51575 vancomycin-resistant", "MIC": "> 50 µg/mL"}
{"SMILES": "CN(C)[C@@H]1C(O)=C(C(N)=O)C(=O)[C@@]2(O)C(O)=C3C(=O)c4c(O)c(N)nc(Cl)c4C[C@H]3C[C@@H]12", "strain": "tet(M)-carrying", "MIC": "32 µg/mL"}
{"SMILES": "CN1C(=O)Cc2ccc(F)c(CCNCC[C@H]3CN(c4ccc5c(n4)NC(=O)CO5)C(=O)O3)c21", "strain": "ATCC 29212", "MIC": "0.25 µg/mL"}
{"SMILES": "COc1ncc(O)c2c1C[C@H]1C[C@H]3[C@H](N(C)C)C(O)=C(C(N)=O)C(=O)[C@@]3(O)C(O)=C1C2=O.Cl.Cl", "strain": "tet(M)-carrying", "MIC": "> 32 µg/mL"}
{"SMILES": "CC(C)C[C@H](NC(=O)[C@@H](NC(=O)[C@H](CCCNC(=N)N)NC(=O)[C@H](CCC(N)=O)NC(=O)[C@H](Cc1ccccc1)NC(=O)[C@H](Cc1ccc(O)cc1)NC(=O)[C@H](CC(N)=O)NC(=O)[C@H](Cc1c[nH]c2ccccc12)NC(=O)[C@@H](NC(=O)[C@H](CCCNC(=N)N)NC(=O)[C@H](CCCCN)NC(=O)[C@@H](N)Cc1ccccc1)C(C)C)C(C)C)C(=O)N[C@H](C(=O)N[C@@H](CCCCN)C(=O)N[C@@H](CCCCN)C(=O)N[C@@H](Cc1ccc(O)cc1)C(=O)N[C@@H](C)C(N)=O)C(C)C", "technique": "broth dilution", "strain": "KCTC 3511", "MIC": "> 100 µM"}
{"SMILES": "Cc1ccc2[nH]c3c(c2c1)CCCC3NCCc1ccc(Br)cc1 (stereo not shown)", "technique": "broth microdilution", "strain": "JH2-2", "MIC": "4 µg/mL"}
{"SMILES": "CN(C)[C@@H]1C(O)=C(C(N)=O)C(=O)[C@@]2(O)C(O)=C3C(=O)c4c(O)c(NC(=O)CNC(C)(C)C)nc(F)c4C[C@H]3C[C@@H]12.Cl.Cl", "strain": "tet(M)-carrying", "MIC": "32 µg/mL"}
{"SMILES": "CN1C(=O)Cc2ccc(F)c(CNCCCC3CN(c4ccc5c(n4)NC(=O)CO5)C(=O)O3)c21 (stereo not shown)", "strain": "ATCC 29212", "MIC": "0.25 µg/mL"}
{"SMILES": "CN(C)[C@@H]1C(O)=C(C(N)=O)C(=O)[C@@]2(O)C(O)=C3C(=O)c4c(O)cncc4C[C@H]3C[C@@H]12.Cl.Cl", "strain": "tet(M)-carrying", "MIC": "> 32 µg/mL"}
{"SMILES": "CC(C)C[C@@H](NC(=O)[C@H](C)NC(=O)CNC(=O)[C@@H](NC=O)C(C)C)C(=O)N[C@@H](C)C(=O)N[C@@H](C(=O)N[C@H](C(=O)N[C@@H](C(=O)N[C@@H](Cc1c[nH]c2ccccc12)C(=O)N[C@H](CC(C)C)C(=O)N[C@@H](Cc1ccc2cc[nH]c2c1)C(=O)N[C@H](CC(C)C)C(=O)N[C@@H](Cc1c[nH]c2ccccc12)C(=O)N[C@H](CC(C)C)C(=O)N[C@@H](Cc1c[nH]c2ccccc12)C(=O)NCCO)C(C)C)C(C)C)C(C)C", "technique": "broth microdilution", "strain": "JCM 5803", "MIC": "0.13 µM"}
{"SMILES": "CN(C)CCCNc1nc(Cl)c2c(c1O)C(=O)C1=C(O)[C@]3(O)C(=O)C(C(N)=O)=C(O)[C@@H](N(C)C)[C@@H]3C[C@@H]1C2.Cl", "strain": "tet(M)-carrying", "MIC": "32 µg/mL"}
{"SMILES": "CC(C)C[C@@H](NC(=O)[C@H](C)NC(=O)CNC(=O)[C@@H](NC=O)C(C)C)C(=O)N[C@@H](C)C(=O)N[C@@H](C(=O)N[C@H](C(=O)N[C@@H](C(=O)N[C@@H](Cc1c[nH]c2ccccc12)C(=O)N[C@H](CC(C)C)C(=O)N[C@@H](Cc1ccc2[nH]ccc2c1)C(=O)N[C@H](CC(C)C)C(=O)N[C@@H](Cc1c[nH]c2ccccc12)C(=O)N[C@H](CC(C)C)C(=O)N[C@@H](Cc1c[nH]c2ccccc12)C(=O)NCCO)C(C)C)C(C)C)C(C)C", "technique": "broth microdilution", "strain": "JCM 5803", "MIC": "0.13 µM"}
{"note": "Some of these lines once more:"}
{"SMILES": "CN[C@H](CC(C)C)C(=O)N[C@H]1C(=O)N[C@@H](CC(N)=O)C(=O)N[C@H]2C(=O)N[C@H]3C(=O)N[C@H](C(=O)N[C@H](C(=O)O)c4cc(O)cc(O)c4-c4cc3ccc4O)[C@H](O)c3ccc(c(Cl)c3)Oc3cc2cc(c3O[C@@H]2O[C@H](CO)[C@@H](O)[C@H](O)[C@H]2O[C@H]2C[C@](C)(N)[C@H](O)[C@H](C)O2)Oc2ccc(cc2Cl)[C@H]1O", "strain": "ATCC 51575 vancomycin-resistant", "MIC": "> 50 µg/mL"}
{"SMILES": "CC(C)C[C@@H](NC(=O)[C@H](C)NC(=O)CNC(=O)[C@@H](NC=O)C(C)C)C(=O)N[C@@H](C)C(=O)N[C@@H](C(=O)N[C@H](C(=O)N[C@@H](C(=O)N[C@@H](Cc1c[nH]c2ccccc12)C(=O)N[C@H](CC(C)C)C(=O)N[C@@H](Cc1ccc2cc[nH]c2c1)C(=O)N[C@H](CC(C)C)C(=O)N[C@@H](Cc1c[nH]c2ccccc12)C(=O)N[C@H](CC(C)C)C(=O)N[C@@H](Cc1c[nH]c2ccccc12)C(=O)NCCO)C(C)C)C(C)C)C(C)C", "technique": "broth microdilution", "strain": "JCM 5803", "MIC": "0.13 µM"}
